Measurements gathered from unrelated publications.
Each line is one published result; not all experiments were run side by side.

SMILES | assay | test system | setting | how to read | endpoint | value
Cn1c(-c2ccc(C(N)=O)cc2F)nnc1C(C)(C)Oc1c(F)cc(Cl)cc1F |  | human | oral, 30 mg, single ascending dose, incl. administration site |  | general disorder TEAE | 33.3%
C[C@@H](NC(=O)N1C(=O)[C@H](Cc2ccnc(N)c2)[C@H]1C(=O)O)C1CCCCC1 |  | healthy Chinese adults | continuous intravenous infusion, 1.5 mg/kg/h, 5.0 days |  | urine leukocyte-positive | 0%
CCc1ccc(CC/C=C/c2ccc3c(c2)C(=O)CC3)cc1 |  | Sprague-Dawley rat, male | oral, 30 mg/kg/day, 14 days |  | Neutrophil percentage | 10.6%
CC(C)Nc1ccnc(Nc2cccc(-c3cccnc3)c2)n1 | refers to: alkaline phosphatase | mouse, blood | intraperitoneal, 3 mg/kg |  | blood chemistry | 144 U/L
CN(C)C1(CNC(=O)c2ccc3c(c2)CCN3C(=O)c2ccccc2)CCOCC1 |  | C57BL/6 mice, male, plasma | intraperitoneal, 50 mg/kg, 30 min |  | unbound plasma concentration | 2.65 µM
C[C@]1(CO)Cc2ncn(-c3ccc(C#N)c(Cl)c3)c2C(=O)O1 |  | human, plasma | 3 mg once daily, fasted |  | Cmax at steady state | 0.141 µM
COc1ccc([C@@H](O)c2cc(-c3ncnc4cc(N5CCOCC5)ccc34)c(F)cc2Cl)nn1 |  | patients, advanced solid tumours | oral, 200 mg twice daily, treatment-emergent, added: avelumab | relative to: patients | vascular disorders incidence | 1%
Cn1cc(-c2nc(N[C@@H]3CCCC[C@@H]3N)c(F)c3c2C(=O)NC3)cn1 | refers to: Epistaxis | patients with relapsed or refractory AML | oral, dose not given, all doses |  | hemorrhagic adverse events | 26%
N#CCNC(=O)c1ccc(-c2ccnc(Nc3ccc(N4CCOCC4=O)cc3)n2)cc1 | population PK model, NONMEM | human | metabolite of momelotinib, typical value, final model |  | Vpm/F | 45.7 L
CCN(CCO)CCCC(C)Nc1ccnc2cc(Cl)ccc12 (stereo not drawn) |  | newly diagnosed glioblastoma patients | oral, 400 mg/dose, grade 1, added: radiotherapy plus temozolomide |  | alkaline phosphatase increased patients | 29%
COc1cc2c(Oc3ccc4[nH]c(C)cc4c3F)ccnc2cc1OCC1(N)CC1 |  | paediatric recurrent refractory sarcoma | concentration not given, whole group |  | grade 1 or 2 ALP elevation | 29.4%
O=C(Nc1ccccc1)C1CCN(C(=O)Oc2cccnc2)CC1 | adverse event reporting | healthy women | oral, 100 mg, 9 days |  | subjects with feeling drunk | 38.5%
CCCCCCCCCCCCCCCC(=O)N[C@@H](CCC(=O)NCCCC[C@H](NC(=O)[C@H](CC(=O)O)NC(=O)[C@H](CO)NC(=O)[C@@H](NC(=O)[C@H](Cc1ccccc1)NC(=O)[C@@H](NC(=O)CNC(=O)[C@H](CCC(N)=O)NC(=O)[C@H](CO)NC(=O)[C@@H](N)Cc1c[nH]cn1)[C@@H](C)O)[C@@H](C)O)C(=O)N[C@@H](CO)C(=O)N[C@@H](CCC(=O)O)C(=O)N[C@@H](Cc1ccc(O)cc1)C(=O)N[C@@H](CC(C)C)C(=O)N[C@@H](CC(=O)O)C(=O)N[C@@H](CO)C(=O)N[C@@H](CCC(=O)O)C(=O)N[C@@H](CCCNC(=N)N)C(=O)N[C@@H](C)C(=O)N[C@@H](CCCNC(=N)N)C(=O)N[C@@H](CC(=O)O)C(=O)N[C@@H](Cc1ccccc1)C(=O)N[C@H](C(=O)N[C@@H](C)C(=O)N[C@@H](Cc1c[nH]c2ccccc12)C(=O)N[C@@H](CC(C)C)C(=O)N[C@@H](CCC(=O)O)C(=O)N[C@@H](C)C(=O)NCC(=O)NCC(=O)O)C(C)C)C(=O)O | refers to: Vomiting | humans CrCl below 20 mL/min | subcutaneous, 100 µg single dose |  | treatment-related adverse events | 33.3%
CN1CCN(S(=O)(=O)c2cc([N+](=O)[O-])ccc2N(CCOS(C)(=O)=O)CCOS(C)(=O)=O)CC1 |  | naive NOD/SCID mice, pooled blood | intraperitoneal, 18.8 mg/kg, week 4 |  | globulin | 16 g/L
CC[C@H](C)CCCCC(=O)N[C@@H](CCN)C(=O)N[C@H](C(=O)N[C@@H](CCN)C(=O)N[C@H]1CCNC(=O)[C@H]([C@@H](C)O)NC(=O)[C@H](CCN)NC(=O)[C@H](CCN)NC(=O)[C@H](CC(C)C)NC(=O)[C@@H](Cc2ccccc2)NC(=O)[C@H](CCN)NC1=O)[C@@H](C)O |  | critically ill survivors, plasma | intravenous, 2.1 mg/kg/day, 6 h, median |  | concentration at steady state | 3 µg/mL

A few entries again:
SMILES | assay | test system | setting | how to read | endpoint | value
C[C@@H](NC(=O)N1C(=O)[C@H](Cc2ccnc(N)c2)[C@H]1C(=O)O)C1CCCCC1 |  | healthy Chinese adults | continuous intravenous infusion, 1.5 mg/kg/h, 5.0 days |  | urine leukocyte-positive | 0%
CCc1ccc(CC/C=C/c2ccc3c(c2)C(=O)CC3)cc1 |  | Sprague-Dawley rat, male | oral, 30 mg/kg/day, 14 days |  | Neutrophil percentage | 10.6%
